Measurements from different studies.
Lines come from different studies, so protocols differ. ± gives the spread as reported.
APP: Amyloid-beta precursor protein (APP, Homo sapiens, UniProt P05067)
UniProt P05067, sequence (whole entry, looked up): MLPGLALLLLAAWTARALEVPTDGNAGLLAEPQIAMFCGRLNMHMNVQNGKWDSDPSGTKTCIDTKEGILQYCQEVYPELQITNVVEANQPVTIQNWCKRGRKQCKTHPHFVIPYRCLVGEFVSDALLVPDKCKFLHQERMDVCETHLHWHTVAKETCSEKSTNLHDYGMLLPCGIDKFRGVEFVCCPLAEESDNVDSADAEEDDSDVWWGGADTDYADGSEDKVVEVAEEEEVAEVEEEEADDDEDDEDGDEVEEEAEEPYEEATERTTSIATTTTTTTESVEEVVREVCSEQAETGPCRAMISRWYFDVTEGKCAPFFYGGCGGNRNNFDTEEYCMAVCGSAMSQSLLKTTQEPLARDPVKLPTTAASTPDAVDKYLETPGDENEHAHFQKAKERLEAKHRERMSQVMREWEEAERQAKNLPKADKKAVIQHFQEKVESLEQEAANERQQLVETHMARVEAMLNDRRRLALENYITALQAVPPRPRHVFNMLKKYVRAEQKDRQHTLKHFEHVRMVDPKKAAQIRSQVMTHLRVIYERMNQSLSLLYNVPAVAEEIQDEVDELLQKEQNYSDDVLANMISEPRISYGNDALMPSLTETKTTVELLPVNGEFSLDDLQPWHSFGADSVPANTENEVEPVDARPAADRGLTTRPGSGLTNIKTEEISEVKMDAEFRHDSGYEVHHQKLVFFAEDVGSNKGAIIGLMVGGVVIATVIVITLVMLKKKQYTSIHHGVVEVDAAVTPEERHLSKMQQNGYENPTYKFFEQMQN
APP Aβ42 fibrils: Amyloid-beta precursor protein, Aβ42 fibrils (APP, Homo sapiens, UniProt P05067)
APP Aβ40 fibrils: Amyloid-beta precursor protein, Aβ40 fibrils (APP, Homo sapiens, UniProt P05067)

`COc1cc(/C=C/C(=O)C2=C(/C=C/c3ccc(O)c(OC)c3)NC(=O)NC2[c-]2cccc2)ccc1O.[Fe+2].c1cc[cH-]c1` (racemic) has an IC50 of 4000 nM (APP; amyloid aggregation, inhibitor, fluorescence; pH 6.9).
For `COc1cc(-c2nc3ccccc3s2)cc(CN2CCN(Cc3cc(-c4nc5ccccc5s4)cc(OC)c3O)CCN(C(C)C)CC2)c1O`, the Ki was 1300 nM (APP; ligand displacement, fluorescence).
`[Cu+].c1cc2nc(c1)CSCc1cc(-c3nc4ccccc4s3)cc(n1)CSC2` has a Ki of 840 ± 130 nM (APP Aβ42 fibrils; amyloid-beta 42 binding, thioflavin T competition; pH 7.4).
`CCCC[C@@H]1NC(=O)[C@@H](CC(C)C)NC(=O)[C@H](CCCCN)NC(=O)[C@@H](CO)NC(=O)[C@H](Cc2c[nH]cn2)NC(=O)[C@@H](Cc2c[nH]c3ccccc23)NC1=O` gave a Kd of 6000 nM (Amyloid-beta precursor protein, fibril (APP, Homo sapiens, UniProt P05067); binding, SPR).
`CC(C)(C)N1Cc2cccc(n2)CN(C(C)(C)C)Cc2cc(-c3nc4ccccc4s3)cc(n2)C1` has a Ki of 70 ± 30 nM (APP Aβ42 fibrils; amyloid-beta 42 binding, thioflavin T competition; pH 7.4).
`COc1cc(-c2nc3ccccc3s2)cc(CN2CCNCCN(Cc3cc(-c4nc5ccccc5s4)cc(OC)c3O)CC2)c1O` gave a Ki of 290 nM (APP; ligand displacement, fluorescence).
For `COc1cc(C=Cc2cc(-[c-]3cccc3)n(C(=O)[c-]3cccc3)n2)ccc1O.[Fe+2].[Fe+2].c1cc[cH-]c1.c1cc[cH-]c1`, the IC50 was 30000 nM (APP; amyloid aggregation, inhibitor, fluorescence; pH 6.9).
`COc1cc(-c2nc3ccccc3s2)cc(CN2Cc3cccc(n3)CN(Cc3cc(-c4nc5ccccc5s4)cc(OC)c3O)Cc3cccc(n3)C2)c1O` gave a Kd of 600 nM (APP Aβ40 fibrils; amyloid-β fibril binding, direct fluorescence; Aβ 5 µM).
`COc1cc(/C=C/C(=O)C2=C(/C=C/c3ccc(O)c(OC)c3)NC(=S)NC2[c-]2cccc2)ccc1O.[Fe+2].c1cc[cH-]c1` (racemic) gave an IC50 of 5500 nM (APP; amyloid aggregation, inhibitor, fluorescence; pH 6.9).
`COc1cc(-c2nc3ccccc3s2)cc(CN2CCN(C)CCN(Cc3cc(-c4nc5ccccc5s4)cc(OC)c3O)CC2)c1O` gave a Ki of 1300 nM (APP; ligand displacement, fluorescence).
With `COc1cc(/C=C/c2cc(-[c-]3cccc3)n(C(=O)c3ccccc3)n2)ccc1O.[Fe+2].c1cc[cH-]c1` the DC50 was 12000 ± 1000 nM (APP Aβ40 fibrils; amyloid fibril disassembly, thioflavin T fluorescence; 24 h, 37 °C, with: 25 µM amyloid-beta).
`Clc1ccc2c(c1)N(CCCN1CCN(CCn3cc(CN4CCCNCCN(Cc5cn(CCN6CCN(CCCN7c8ccccc8Sc8ccc(Cl)cc87)CC6)nn5)CCCNCC4)nn3)CC1)c1ccccc1S2.[Cu+2].[O-][Cl+3]([O-])([O-])[O-].[O-][Cl+3]([O-])([O-])[O-]` gave a Kd of 7400 nM (Amyloid-beta precursor protein, Aβ42 monomer (APP, Homo sapiens, UniProt P05067); aggregation kinetics fit).

A few entries again:
`COc1cc(-c2nc3ccccc3s2)cc(CN2CCNCCN(Cc3cc(-c4nc5ccccc5s4)cc(OC)c3O)CC2)c1O` gave a Ki of 290 nM (APP; ligand displacement, fluorescence).
